Measured values collected from several papers.
Numbered parts are unrelated; each lists some results of a single study.
Sequence of UniProt O15264 (whole entry, looked up): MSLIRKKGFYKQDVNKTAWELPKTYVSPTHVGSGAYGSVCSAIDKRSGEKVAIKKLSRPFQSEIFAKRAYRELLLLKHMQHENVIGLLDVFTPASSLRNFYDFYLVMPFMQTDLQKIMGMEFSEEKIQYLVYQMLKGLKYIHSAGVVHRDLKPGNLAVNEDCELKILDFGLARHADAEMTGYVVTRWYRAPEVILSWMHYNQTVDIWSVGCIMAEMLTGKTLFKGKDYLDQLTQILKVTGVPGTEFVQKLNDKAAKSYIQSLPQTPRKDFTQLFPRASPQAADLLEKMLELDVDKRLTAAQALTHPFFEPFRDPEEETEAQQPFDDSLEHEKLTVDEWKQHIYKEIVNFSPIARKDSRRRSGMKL

Block 1 — technique: protein binding microarray; form: double-stranded DNA, one strand shown; matrix: in vitro; tested at: not given; baseline: not given; direction: higher = stronger binding
Target: Histone acetyltransferase KAT6A, winged helix 1, GST fusion (KAT6A, Homo sapiens, UniProt Q92794, residues 1-85)
Setting: 8-mer, flanks averaged, mean of 2 arrays, mostly near background
Construct (chain): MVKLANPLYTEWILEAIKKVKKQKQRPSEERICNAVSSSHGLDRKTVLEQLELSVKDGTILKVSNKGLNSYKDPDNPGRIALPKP
| Oligonucleotide | E-score |
| --- | --- |
| ACTGGAAG | -0.259 |
| ACGGCGTG | 0.416 |
| ATCTGGAC | -0.183 |
| AGGCCGAC | 0.202 |
| AGGATGCC | -0.0386 |
| ACAGTCGA | -0.207 |
| GGGCATCA | -0.0768 |
| TATCGAGA | -0.243 |

Block 2 — technique: protein-binding microarray; form: hairpin DNA; matrix: in vitro; tested at: not given; baseline: not given; direction: higher = stronger binding
Target: Runt-related transcription factor 1, full length (RUNX1, Homo sapiens, UniProt Q01196-8, residues 1-480)
Setting: whole hairpin DNA, median over replicate spots
| Oligonucleotide | median fluorescence |
| --- | --- |
| GAGGCCTAACCGCAACAGCCTCCTGGCTGTTGCGGTTAGGCCTCACACTC | 11100 a.u. |
| GAGGCCCAACCGCGACAGCCTCCTGGCTGTCGCGGTTGGGCCTCACACTC (5mC at 13) | 2910 a.u. |
| GAGGCCTGTCGCGGTCGGCCTCCTGGCCGACCGCGACAGGCCTCACACTC | 2470 a.u. |
| CTCAGTCCTGTGGGCTGGACTCCTGTCCAGCCCACAGGACTGAGACACTC | 1850 a.u. |
| GAGGCCTGTAGCGGTTGGCCTCCTGGCCAACCGCTACAGGCCTCACACTC | 2420 a.u. |
| GAGGCCCATCCGCAACAGCCTCCTGGCTGTTGCGGATGGGCCTCACACTC | 1990 a.u. |
| GAGGCCCAACCGCCACAGCCTCCTGGCTGTGGCGGTTGGGCCTCACACTC | 2820 a.u. |
| GAGGCCTCTTGTGGTTGGCCTCCTGGCCAACCACAAGAGGCCTCACACTC | 3030 a.u. |

Further values, each from its own experiment
| Structure (SMILES) | tested on | test | conditions | how to read | endpoint | value |
| --- | --- | --- | --- | --- | --- | --- |
| CCC(=O)N[C@@H]1CC[C@H](C(=O)N(C)c2ccc(-c3nc4ccccc4o3)cc2)C1 | patient-derived normal-adjacent epithelium organoids | – | 1 µM | baseline: DMSO control | viability | 97.7% |
| CN(C)c1ccc(C=C2C(=O)Nc3ccccc32)cc1 | MAPK13 (Homo sapiens, UniProt O15264) | enzyme activity, inhibitor | 0.5 µM | baseline: control | remaining activity | 97.1% |

Repeated from above (block 2):
| Oligonucleotide | median fluorescence |
| --- | --- |
| GAGGCCTGTAGCGGTTGGCCTCCTGGCCAACCGCTACAGGCCTCACACTC | 2420 a.u. |
| GAGGCCTAACCGCAACAGCCTCCTGGCTGTTGCGGTTAGGCCTCACACTC | 11100 a.u. |
| CTCAGTCCTGTGGGCTGGACTCCTGTCCAGCCCACAGGACTGAGACACTC | 1850 a.u. |
